{"data": "Experimental data pooled from the literature", "note": "A part holds a random share of what one study measured."}
{"data": "Block 1", "target": "Interferon regulatory factor 5, full length, phosphomimetic (IRF5, Homo sapiens, UniProt Q13568-2, residues 1-514, K96S/S451D/S453D/S456D/S462D)", "method": "protein-binding microarray", "molecule type": "double-stranded DNA, one strand shown", "medium": "in vitro", "concentration": "250 nM", "setting": "60-bp whole probe", "with": "salmon DNA 0.4 mg/ml", "reference": "random background probes", "direction": "higher = stronger binding", "shared flanks, not repeated": "GCCTAGCAC … GTCTTGATTCGCTTGACGCTGCTG"}
{"Oligonucleotide": "CACGGTTCCCTTTTCCTGACGTGCTAG", "log fluorescence": "0.126 z-score"}
{"Oligonucleotide": "TATGTCTGGCCCAAGCAGCCGTGCTAG", "log fluorescence": "-0.566 z-score"}
{"Oligonucleotide": "TCAAAGATTTTTATCAAACTGTGCTAG", "log fluorescence": "0.262 z-score"}
{"Oligonucleotide": "TTAGGAGTGGGTATCGGTTAGTGCTAG", "log fluorescence": "4.5 z-score"}
{"Oligonucleotide": "ATGATTGGTTGAACATGAACGTGCTAG", "log fluorescence": "0.327 z-score"}
{"Oligonucleotide": "TTAGGTCTCCTTACCCTTTAGTGCTAG", "log fluorescence": "-0.403 z-score"}
{"Oligonucleotide": "GCCTTTTTTTTTTTTTCTGAGTGCTAG", "log fluorescence": "0.685 z-score"}
{"Oligonucleotide": "TGCCTTTTTTTTTTTTTCTGGTGCTAG", "log fluorescence": "1.04 z-score"}
{"Oligonucleotide": "TTAGAACTGAGACTTGATTAGTGCTAG", "log fluorescence": "-0.0185 z-score"}
{"Oligonucleotide": "CTAGGTCTCGGTATCGGTTAGTGCTAG", "log fluorescence": "4.94 z-score"}
{"Oligonucleotide": "CTTTCTATGTCTGTTTTTGCGTGCTAG", "log fluorescence": "2.89 z-score"}
{"Oligonucleotide": "TCCATTTTCTGAATGCCTTGGTGCTAG", "log fluorescence": "1.18 z-score"}
{"Oligonucleotide": "TCTTTTCTGTTGTCTGTGTTTGTGCTA", "log fluorescence": "3.14 z-score"}
{"Oligonucleotide": "CGAGTTTCTATTTTCTGAATGTGCTAG", "log fluorescence": "5.34 z-score"}
{"Oligonucleotide": "TCACCCCTCCCCCTCAGACTGTGCTAG", "log fluorescence": "-0.244 z-score"}
{"Oligonucleotide": "GACGGTATCGGACTGGCGACGTGCTAG", "log fluorescence": "0.98 z-score"}
{"Oligonucleotide": "TTAGGTTTACTTTCCCTTTAGTGCTAG", "log fluorescence": "2.74 z-score"}
{"data": "Block 2", "target": "Hepatocyte nuclear factor 3-alpha (Foxa1, Mus musculus, UniProt P35582, residues 1-468, full length assumed)", "method": "EMSA with sequencing", "molecule type": "double-stranded DNA, one strand shown", "medium": "in vitro", "concentration": "10 and 20 nM", "setting": "whole designed probe, mean of two concentrations, ends assumed", "reference": "negative control set to 0", "direction": "higher = stronger binding", "UniProt P35582, sequence (whole entry, looked up)": "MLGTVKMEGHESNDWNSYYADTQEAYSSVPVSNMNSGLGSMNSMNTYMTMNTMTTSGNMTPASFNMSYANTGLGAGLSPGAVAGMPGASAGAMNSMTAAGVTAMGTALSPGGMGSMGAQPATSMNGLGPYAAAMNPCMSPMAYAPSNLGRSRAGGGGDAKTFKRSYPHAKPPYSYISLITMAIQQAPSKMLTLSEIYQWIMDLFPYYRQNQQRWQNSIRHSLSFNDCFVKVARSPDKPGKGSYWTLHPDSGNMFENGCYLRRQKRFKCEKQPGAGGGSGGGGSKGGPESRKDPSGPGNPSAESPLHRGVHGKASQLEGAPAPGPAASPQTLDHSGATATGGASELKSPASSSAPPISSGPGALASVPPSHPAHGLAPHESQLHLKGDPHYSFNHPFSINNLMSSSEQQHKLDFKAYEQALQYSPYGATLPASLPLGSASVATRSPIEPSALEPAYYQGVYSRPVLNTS"}
{"Oligonucleotide": "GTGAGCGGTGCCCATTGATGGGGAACTGTCCCCAAACTAAATTAACAACTTTTTCCAAGACAAGTTCCAACACCAATTCATCCCCCAACTCCCCCGCCTCTTTTTTTTTTTTTTTTTAAAGTAAACAAGGATACCTTCATTCTCTCAGGAAAAAGGTGACATCAAATTACCTTCTCTTTTTTCTTCTCAATCTTCCAAAACCTTTTCCCAAAGTCATTTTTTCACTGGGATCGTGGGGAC", "normalised bound fraction [ratio]": 0.306}
{"Oligonucleotide": "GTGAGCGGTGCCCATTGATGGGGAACAATCTAAGCACAGGATGACAATAAAATGTTATGAAACCTGTACAATTTCTTAAAAATTTTATTAAAGAAAATATAAATAGTTAAATAAAAGCCATGTTTACACTGAAATAAAATAAAGGATGGGAAAAGGTAGTATCTAAGTTTTCTACTTATTGGCAATCCTATAAGTTATAGTTTTTGAAATATTTAAAAGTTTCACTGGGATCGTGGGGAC", "normalised bound fraction [ratio]": 0.168}
{"Oligonucleotide": "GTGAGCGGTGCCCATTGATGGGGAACATCTTCCCCCTCTTCCTTGCCCCACCAGCTCACCTTCCCGGGTTATTTGCAGATAGGAAAATAAATAAAGCCGGCATTCGTTAACCCTCTTCTGGCGCAAACTGCTGTTTGCTCTGCATGAATCATGGTCCTTACGCGAGGCGTGGCTCCGGGAGAGCAAAGCACCGTGTCAGGCGCATGATCCGGGCTCGCCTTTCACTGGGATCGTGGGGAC", "normalised bound fraction [ratio]": 0.348}
{"Oligonucleotide": "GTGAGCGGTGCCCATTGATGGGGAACAGCTTAAGGAAGTTCTAACGCCCCCCTCCCCTCCTTTATTTTTGAGTTGAAAGAGGGTAGAATCAAAAACAATACTGAGAGGGGTCTAAAAATGCAAACACAGAGAGTTGCTGGTTTAGGAGGGCTGGGAGGCTATGGGAGACCATAGGCATAGAGAAAACATTCCTTCTCTGTGACTCTCGGGCGCGAGCGATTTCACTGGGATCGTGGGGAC", "normalised bound fraction [ratio]": 0.453}
{"Oligonucleotide": "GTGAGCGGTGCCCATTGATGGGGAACCTTATAATATTTCTTATGATCACCAAGTCTAGTAAAAAATTAGATTATTATATATGAGTGAATCTCAGATTTATATGTGAATAATTCATCTATGTTTACTTAGGTAATTTCCCTTACTAATCCTAAAATAATACTTGAGGTAGCAGGAGATAACCAACTTTAAAATTCTGTATCTGCATTATGATTTCCATTTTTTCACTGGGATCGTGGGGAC", "normalised bound fraction [ratio]": 0.445}
{"Oligonucleotide": "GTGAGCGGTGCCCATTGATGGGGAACATCTTCCCCCTCTTCCTTGCCCCACCAGCTCACCTTCCCGGGTTGTTTACTTTGAGCAAAGTAAACAAAGCCGGCATTCGTTAACCCTCTTCTGGCGCAAACTGCTGTTTGCTCTGGATCTAACATGGTCCTTTGGCGACGCCAGGCTCCGGGAGAGCAAAGCACCGTGTCAGGGCCATGATCCGGGGTGGCCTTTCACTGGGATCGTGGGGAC", "normalised bound fraction [ratio]": 0.529}
{"data": "Block 3", "target": "RNA binding protein fox-1 homolog 2, RRM domain, GST-SBP tag (RBFOX2, Homo sapiens, UniProt O43251-10, residues 100-194)", "method": "RNA Bind-n-Seq", "molecule type": "RNA", "medium": "in vitro", "concentration": "365 nM", "setting": "natural RNA segment, single round, ends assumed", "reference": "no-protein control", "direction": "higher = stronger binding"}
{"Oligonucleotide": "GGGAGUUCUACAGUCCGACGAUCUUCUUCCUCUGGGCAAAGAAGGGCUUCCAGUGGCCUUUCCUCACUCUGUAGUGUUUGUGGGGAUAGGUUCCAUGCAAGAACACCUUCCUCCUCCAUCCCCCACUUCACCCUGGAAUUCUCGGGUGCCAA", "RBNS enrichment (R)": 0.542}
{"Oligonucleotide": "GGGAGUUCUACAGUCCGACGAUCCUCUGCAGUGGUUUCAAGGACAAAUAGUGUCCAAUGUAUUGGGCCAUUUUUCCUGCUGUUUUUAUACUCAACUUCUCAAAAUGAAAAAAGCUUUUAUUUUUCCUUUGACUUGGAAUUCUCGGGUGCCAA", "RBNS enrichment (R)": 0.533}
{"Oligonucleotide": "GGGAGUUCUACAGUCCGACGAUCAGGGUUUCACGCUGUUCUUUUCCUCUGAAGUAUGACAUUUCAUUGACACAUUUCGGUCCAGUGUAGCUGUACAUAUGGGGUGUGGACGACCUGUUACUGGACAUGUCUUAUGGAAUUCUCGGGUGCCAA", "RBNS enrichment (R)": 0.556}
{"Oligonucleotide": "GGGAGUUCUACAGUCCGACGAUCCAUUUGCCUAACAGACUUUUGCAGAGGCGAUGGCAGAGAGCAGCUGCAGGCAUGGUCCCUGGAGCCGAGCCUUCACCACGCACUCGUCCAAGUUCGGAUGCGGGAACCUGUGGAAUUCUCGGGUGCCAA", "RBNS enrichment (R)": 0.444}
{"Oligonucleotide": "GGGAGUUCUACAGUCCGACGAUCAUAUAAUUUGAAUGACUGUGAAAACAUAUGACCUUUGAUAACGAACUCAUUUGCUCACUCCUUGACAGCAAAGCCCAGUACGUACAAUUGUGUUGGGUGUGGGUGGUCUCUGGAAUUCUCGGGUGCCAA", "RBNS enrichment (R)": 0.766}
{"Oligonucleotide": "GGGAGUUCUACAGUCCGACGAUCGGCAGCGCCUGUGCAGACCUCCCUGCAGGCCGCACUGCCAACUGCUGCAUUUGUUGUGUUUUUUAGGUUGCAAUUGGUGAAGUUCACACUUUCAUUGUAAUUUUAGCGUGUGGAAUUCUCGGGUGCCAA", "RBNS enrichment (R)": 0.492}
{"Oligonucleotide": "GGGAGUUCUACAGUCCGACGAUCGCCUAGACACCCCUGAAGUUUGGAUGAAGUCUGGUGGAUUCCCUGUCUGUUGUAUUUCUGUGUGCCUGUUCCCUUCAUUGCUGUGAGUUGGGAGUGCAUUGAGAGAUGAUUGGAAUUCUCGGGUGCCAA", "RBNS enrichment (R)": 2.35}
{"Oligonucleotide": "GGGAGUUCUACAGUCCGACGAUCCUGUAGCCACUGCCCAGCACCUCCUCAGGCCAGCCUGGUGCCACAGUCACGUGGGGGAAGACCUCAGCCACAGCUGUAAGCAGCUCUCUGCCAGCCACAUGGCCGGGGACUGGAAUUCUCGGGUGCCAA", "RBNS enrichment (R)": 0.367}
{"Oligonucleotide": "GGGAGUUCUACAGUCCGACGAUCCGUGCCCGGCCUGCAAACACAUUUUAAUUGACAACACUAGGGCUGUUGUACAAAAUAGUAAUGAUAGCCAUGGAAGUUUUACCUUAUUCUGUGAGAAGUGUUCUUAAACUUGGAAUUCUCGGGUGCCAA", "RBNS enrichment (R)": 0.605}
{"data": "Block 4", "target": "Ras GTPase-activating protein-binding protein 1, full length (G3BP1, Homo sapiens, UniProt Q13283)", "method": "RNA Bind-n-Seq", "molecule type": "RNA", "medium": "in vitro", "concentration": "200 nM", "setting": "whole 134-nt RNA, ends assumed", "with": "150 mM LiCl", "reference": "input library", "direction": "higher = stronger binding", "each molecule": "7-deaza-guanosine replaces G", "UniProt Q13283, sequence (whole entry, looked up)": "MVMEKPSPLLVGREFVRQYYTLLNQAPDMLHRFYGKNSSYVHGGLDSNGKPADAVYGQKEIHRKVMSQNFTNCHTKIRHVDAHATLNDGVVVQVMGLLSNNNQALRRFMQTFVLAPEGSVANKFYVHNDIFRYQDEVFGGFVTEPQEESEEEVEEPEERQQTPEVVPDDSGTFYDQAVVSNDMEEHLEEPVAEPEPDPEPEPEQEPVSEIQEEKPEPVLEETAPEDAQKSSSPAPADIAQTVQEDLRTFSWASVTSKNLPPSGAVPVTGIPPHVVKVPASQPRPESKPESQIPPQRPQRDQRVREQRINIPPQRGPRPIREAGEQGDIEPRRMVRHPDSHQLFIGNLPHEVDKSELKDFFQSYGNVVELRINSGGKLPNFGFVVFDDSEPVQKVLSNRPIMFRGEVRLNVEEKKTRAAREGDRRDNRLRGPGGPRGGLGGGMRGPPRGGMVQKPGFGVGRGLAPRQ"}
{"Oligonucleotide": "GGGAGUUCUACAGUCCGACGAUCCAAGUCCUGUGCUACACAUCGUAUGUACCGAAUCGGUUUUGGUUUUGGGUUUUGGAAAGUAUUAUGUUACGCCGUUCGGAUCUGCACUUCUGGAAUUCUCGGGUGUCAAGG", "log2 enrichment": -1.02}
{"Oligonucleotide": "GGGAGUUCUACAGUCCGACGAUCAGUCCUGUGCUACACAUCGUAUGUACCGAAUCGGGUUUUUGGUUUUUGGGGUUUUUGGAAAGUAUUAUGUUACGCCGUUCGGAUCUGCACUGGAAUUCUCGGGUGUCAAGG", "log2 enrichment": -0.28}
{"Oligonucleotide": "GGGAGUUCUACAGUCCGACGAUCUCAAGUCCUGUGCUACACAUCGUAUGUACCGAAUCGGUUUGGUUUGGAAAAAGGAAAGUAUUAUGUUACGCCGUUCGGAUCUGCACUUCCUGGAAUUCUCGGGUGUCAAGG", "log2 enrichment": -0.51}
{"Oligonucleotide": "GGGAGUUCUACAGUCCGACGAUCUCAAGUCCUGUGCUACACAUCGUAUGUACCGAAUCGUGUGUGUGUGUGUGUGUGAAAGUAUUAUGUUACGCCGUUCGGAUCUGCACUUCCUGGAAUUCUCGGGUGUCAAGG", "log2 enrichment": -0.708}
{"Oligonucleotide": "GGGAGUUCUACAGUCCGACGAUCUGUGCUACACAUCGUAUGUACCGAAUCGGGCCCCCCCGGGGCCCCCCCGGGGCCCCCCCGGGGAAAGUAUUAUGUUACGCCGUUCGGAUCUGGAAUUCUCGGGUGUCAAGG", "log2 enrichment": -0.8}
{"Oligonucleotide": "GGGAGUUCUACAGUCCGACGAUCUGGCCCUGGUGGCAGGCGGGGAGGAAGAGGUGGCCUCAUGGAUCGUGGUGGUCCCGGUGGAAUGUUCAGAGGUGGCCGUGGUGGAGACAGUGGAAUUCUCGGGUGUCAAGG", "log2 enrichment": 0.849}
{"Oligonucleotide": "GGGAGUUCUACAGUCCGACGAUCUCAAGUCCUGUGCUACACAUCGUAUGUACCGAAUCGGGGUGGGGUGGGGUGGGGAAAGUAUUAUGUUACGCCGUUCGGAUCUGCACUUCCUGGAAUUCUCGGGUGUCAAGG", "log2 enrichment": -0.239}
{"Oligonucleotide": "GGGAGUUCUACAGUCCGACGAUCAGUCCUGUGCUACACAUCGUAUGUACCGAAUCGGGGUUUGGGGAAAAAGGGGAGGGGAAAGUAUUAUGUUACGCCGUUCGGAUCUGCACUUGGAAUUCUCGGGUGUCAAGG", "log2 enrichment": -0.0837}
